Assay results of several laboratories.
Numbered parts are unrelated; each lists some results of a single study.
Chain of UniProt Q92772 (whole entry, looked up): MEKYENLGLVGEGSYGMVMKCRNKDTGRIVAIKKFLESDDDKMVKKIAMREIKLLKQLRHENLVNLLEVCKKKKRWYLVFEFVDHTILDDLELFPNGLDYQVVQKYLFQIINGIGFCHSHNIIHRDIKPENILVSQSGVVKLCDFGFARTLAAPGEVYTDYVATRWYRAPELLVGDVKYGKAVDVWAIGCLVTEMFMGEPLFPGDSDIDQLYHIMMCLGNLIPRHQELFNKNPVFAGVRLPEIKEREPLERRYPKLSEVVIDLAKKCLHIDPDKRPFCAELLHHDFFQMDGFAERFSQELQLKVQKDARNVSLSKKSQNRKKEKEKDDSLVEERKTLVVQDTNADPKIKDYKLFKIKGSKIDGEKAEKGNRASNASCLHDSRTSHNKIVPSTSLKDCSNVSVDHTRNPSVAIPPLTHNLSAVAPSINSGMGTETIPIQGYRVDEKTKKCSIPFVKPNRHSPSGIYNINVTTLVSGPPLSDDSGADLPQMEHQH

Block 1 — method: RNAcompete; molecule type: RNA; medium: in vitro; tested at: 20 nM; setting: 7-mer, probes averaged, single round; reference: mean of 7-mers; direction: higher = stronger binding
Target: PABPC1L2, full length, GST fusion (mouse, UniProt A0ABA7IW68)
Construct (chain): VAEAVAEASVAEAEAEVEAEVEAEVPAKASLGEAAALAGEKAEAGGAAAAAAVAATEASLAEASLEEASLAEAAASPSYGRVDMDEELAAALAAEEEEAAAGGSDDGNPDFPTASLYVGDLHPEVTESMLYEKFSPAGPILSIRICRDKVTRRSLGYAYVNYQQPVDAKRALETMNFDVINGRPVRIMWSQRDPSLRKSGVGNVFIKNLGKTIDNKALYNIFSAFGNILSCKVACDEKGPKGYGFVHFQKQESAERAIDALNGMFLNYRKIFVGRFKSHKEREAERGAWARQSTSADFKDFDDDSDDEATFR
Sequence	7-mer Z-score
CCUAAAG	-0.0246
CGGAACC	-0.00833
CAGAGCC	-0.0953
CAUUCAA	-0.0573
CGUACAC	-0.199
UACAAUA	0.115
CGGCAUG	-0.148
UUUCAUA	-0.211

Block 2 — method: RNA Bind-n-Seq; molecule type: RNA; medium: in vitro; tested at: 200 nM; setting: whole 134-nt RNA, ends assumed; together with: 150 mM LiCl; reference: input library; direction: higher = stronger binding; library: 7-deaza-guanosine replaces G
Target: Ras GTPase-activating protein-binding protein 1, full length (G3BP1, Homo sapiens, UniProt Q13283)
Chain of UniProt Q13283 (whole entry, looked up): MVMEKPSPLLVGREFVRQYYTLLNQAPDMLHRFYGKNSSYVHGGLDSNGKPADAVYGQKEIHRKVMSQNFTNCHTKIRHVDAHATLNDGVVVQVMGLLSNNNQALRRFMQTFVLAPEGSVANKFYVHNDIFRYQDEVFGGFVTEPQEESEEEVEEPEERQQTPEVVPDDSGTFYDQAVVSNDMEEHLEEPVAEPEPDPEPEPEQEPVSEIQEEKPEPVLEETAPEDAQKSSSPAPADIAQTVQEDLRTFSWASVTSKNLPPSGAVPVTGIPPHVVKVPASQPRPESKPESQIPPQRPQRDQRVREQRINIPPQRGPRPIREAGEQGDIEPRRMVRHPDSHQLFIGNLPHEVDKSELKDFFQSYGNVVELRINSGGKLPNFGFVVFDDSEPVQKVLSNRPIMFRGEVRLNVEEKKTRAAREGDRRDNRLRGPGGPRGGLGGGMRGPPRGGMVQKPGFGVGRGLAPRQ
Constant ends, left off below: GGGAGUUCUACAGUCCGACGAUC … UGGAAUUCUCGGGUGUCAAGG
Sequence	log2 enrichment
GCAGGAAGUAAAAACAAAUGGAAAUGCUUCGGAUAGUGGCAGGGGUGGGGGUUGCUAAGGAAUGGGUGGGAUGGGAGUGGGUAAAGAGUU	-0.176
GCUUAUGUAGACAUGAGGAAGAUUGGCAGUAGCCGGGGAAUGGUUUCUGCAUACCCUCGACAGCUAGAGUCAUUAAUCCGCUUAGCAGAA	1.04
ACCAUGCAGGUGGGCAUCUUUGGGAAGUGGGGCAAGGGGGGGAUAGGGAGGGGGGUAACACGUUGGGAACAGGUGGUCCCAGGUCGUUUC	0.245
UCCUCAAGUCCUGUGCUACACAUCGUAUGUACCGAAUCGGCGGGCGGGCGGGAAAGUAUUAUGUUACGCCGUUCGGAUCUGCACUUCCAG	1.32
UGAAGACACAGCAUCCACCCGAUCUUCAUUCACUGUCCAAGACCUUAAACCUUUUACAGAAUAUGUGUUUAGGAUUCGCUGUAUGAAGGA	-1.15
CCUCAAGUCCUGUGCUACACAUCGUAUGUACCGAAUCGGGGCGGGGCGGGCGGAAAGUAUUAUGUUACGCCGUUCGGAUCUGCACUUCCA	0.18
GGACACAGCUUGGGCUAUGGCUUUGUGAACUACGUGACCGCGAAGGAUGCAGAGAGAGCGAUCAACACGCUGAACGGCUUGAGGCUCCAG	-1.75
UGGGAGGUGGAUUUUGUUUAUUUUUUUAGCUCAUUUCCAGGGGUGGGAAUUUUUUUUUAUUAUGUGUCAUGAAUAAAGUUGUUUUUGAAA	-0.185

Further values, each from its own experiment
Molecule	target	assay	system	conditions	scale	measurement	result
N#CC1(c2ccccn2)CCN(Cc2cc(C(=O)N3CCCC3)c(=O)n3ccccc23)CC1	Cyclin-dependent kinase-like 2 (CDKL2, Homo sapiens, UniProt Q92772)	cell-free assay, competition with immobilised ligand	–	1 µM	–	remaining binding	93%
PhoQ, residues 284 288 289 292 302 303 SSTLLI	PhoP, residues 12 14 15 18 19 SGWQI (Escherichia coli, UniProt P23836)	Sort-seq, item: YFP reporter	E. coli	PhoQ-PhoP variant library, together with: 10 µM Mg2+	reference: high Mg2+ state, higher = stronger signaling	fold induction	2.16

Some of these lines once more (block 2):
Sequence	log2 enrichment
GCAGGAAGUAAAAACAAAUGGAAAUGCUUCGGAUAGUGGCAGGGGUGGGGGUUGCUAAGGAAUGGGUGGGAUGGGAGUGGGUAAAGAGUU	-0.176
